Assay results of several laboratories.
Parts stem from different laboratories: compare values within a part only. Substitutions count along the parent as printed.

Sample 1
Target: Interferon regulatory factor 5, full length, phosphomimetic (IRF5, Homo sapiens, UniProt Q13568-2, residues 1-514, S451D/S453D/S456D/S462D)
Method: protein-binding microarray
Molecule type: double-stranded DNA, one strand shown
Matrix: in vitro
Concentration: 940 nM top
Notes: 60-bp whole probe
Together with: salmon DNA 0.4 mg/ml
Reference: random background probes
Reading: higher = stronger binding
Shared flanks, not repeated: GCCTAGCAC … GTCTTGATTCGCTTGACGCTGCTG
For `GACGGTCTCGGTTTCCGGACGTGCTAG`, “fitted relative affinity” read 4.8 z-score.
`TAAGGTATCGACTTTCGGTTAGTGCTA`: “fitted relative affinity” 4.68 z-score.
Under “fitted relative affinity”, `CTTTAACTCATTCTCTGCTTGTGCTAG` is recorded as 1.5 z-score.
Under “fitted relative affinity”, `TTAGACTTCGGGTTTCGATTAGTGCTA` is recorded as 5.14 z-score.
For `TTAGGTATCGGACTGGATTAGTGCTAG`, “fitted relative affinity” read 3.79 z-score.
For `TTAGATATCGGTACTGGATTAGTGCTA`, “fitted relative affinity” read 1.03 z-score.
Under “fitted relative affinity”, `GACGGGCTGGACTATCGGGACGTGCTA` is recorded as -0.548 z-score.
For `GTATATATAATATATATTCATGTGCTA`, “fitted relative affinity” read 0.125 z-score.
For `TCACCTATCCAAGTTCCCACTGTGCTA`, “fitted relative affinity” read 1.21 z-score.
`TTAGGACTGCTTATCCTTAAGTGCTAG` — result for “fitted relative affinity”: -0.212 z-score.
For `CTGTTTTTGCTTTCTTTTTGGTGCTAG`, “fitted relative affinity” read 2.56 z-score.
`GACGATTTCAGTTTCGAGAGGTGCTAG` — result for “fitted relative affinity”: 4.44 z-score.
For `TTAGGACTGGGTCTCGGGTAGTGCTAG`, “fitted relative affinity” read 0.135 z-score.
For `TCATCTCTCTTTCCACTACTGTGCTAG`, “fitted relative affinity” read 2.3 z-score.
`TTAGGTCTCCATATCCTTTAGTGCTAG`: “fitted relative affinity” 0.621 z-score.
Under “fitted relative affinity”, `GGCGGTATCGACTATCGGGACGTGCTA` is recorded as 5.01 z-score.
`GACGATTTCTGGTTTCGAGACGTGCTA`: “fitted relative affinity” 4.03 z-score.
`GACGATCTCAGATTGGAGACGTGCTAG` — result for “fitted relative affinity”: -0.517 z-score.
`TTAGAACTGAGTATCGATTTGTGCTAG`: “fitted relative affinity” 4 z-score.
Under “fitted relative affinity”, `GCCAAAAGTGTAAATGTAAGGTGCTAG` is recorded as -0.352 z-score.
For `GACGATTTCACTTTCGAGACGTGCTAG`, “fitted relative affinity” read 2.92 z-score.
`GACGGTTTCGACTGTCGGGACGTGCTA` — result for “fitted relative affinity”: 8.38 z-score.
Under “fitted relative affinity”, `TTAGGTTTCGATTCCGGTTAGTGCTAG` is recorded as 13.4 z-score.
`TCATACTTCCCACTGGTACTGTGCTAG`: “fitted relative affinity” 0.472 z-score.
Under “fitted relative affinity”, `GACGGTTTCCTTTTCCTTACGTGCTAG` is recorded as 2.04 z-score.

Sample 2
Target: CCND2, cyclin fold, Cln2 fusion (human)
Method: yeast growth competition, sequencing
Matrix: yeast
Notes: weak parent motif
Reference: not given
Reading: higher = stronger binding
Starting sequence: RBL1 docking peptide (human); GSAKRRLFGEDPP; partner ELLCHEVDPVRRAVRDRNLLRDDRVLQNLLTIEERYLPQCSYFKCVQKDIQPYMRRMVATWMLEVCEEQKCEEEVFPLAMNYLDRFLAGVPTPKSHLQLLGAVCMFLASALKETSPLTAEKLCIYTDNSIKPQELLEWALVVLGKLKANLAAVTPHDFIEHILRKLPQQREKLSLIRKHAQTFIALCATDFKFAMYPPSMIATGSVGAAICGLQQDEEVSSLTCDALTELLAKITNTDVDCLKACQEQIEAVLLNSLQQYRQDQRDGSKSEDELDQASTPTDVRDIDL
For `GSAKRRRFGEDPP [L7R]`, “normalised enrichment score” read -0.0793.
Under “normalised enrichment score”, `GSAKRRSFGEDPP [L7S]` is recorded as 0.0667.
Under “normalised enrichment score”, `SSAKRRLFGEDPP [G1S]` is recorded as 0.246.
`GSAKRRLFGEDPR [P13R]` — result for “normalised enrichment score”: 0.445.
Under “normalised enrichment score”, `GSAKRQLFGEDPP [R6Q]` is recorded as 0.0353.
`GSAKRRKFGEDPP [L7K]`: “normalised enrichment score” 0.41.
`NSAKRRLFGEDPP [G1N]` — result for “normalised enrichment score”: -0.12.
`GSAKPRLFGEDPP [R5P]`: “normalised enrichment score” 0.182.
`GSAKRRLFGELPP [D11L]`: “normalised enrichment score” 0.411.
For `GSAKRRLSGEDPP [F8S]`, “normalised enrichment score” read 0.15.
`GSAKRRLFGEGPP [D11G]`: “normalised enrichment score” 0.347.
Under “normalised enrichment score”, `GSAKRRLFGEDTP [P12T]` is recorded as 0.313.
Under “normalised enrichment score”, `GSFKRRLFGEDPP [A3F]` is recorded as 0.19.

Sample 3
Target: ABI1, truncated, D143A, DHFR fusion (Arabidopsis thaliana)
Method: DHFR PCA, deep sequencing
Matrix: yeast
Notes: methotrexate growth selection, single substitutions
Together with: (+)-ABA 58 µM
Reference: wild-type fitted maximum
Reading: higher = stronger binding
Starting sequence: PYL1, truncated, DHFR fusion (Arabidopsis thaliana); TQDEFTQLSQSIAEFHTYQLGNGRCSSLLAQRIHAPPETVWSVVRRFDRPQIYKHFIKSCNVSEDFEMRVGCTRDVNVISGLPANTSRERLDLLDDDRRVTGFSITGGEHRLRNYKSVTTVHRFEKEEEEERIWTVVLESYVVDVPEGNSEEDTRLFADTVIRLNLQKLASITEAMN; partner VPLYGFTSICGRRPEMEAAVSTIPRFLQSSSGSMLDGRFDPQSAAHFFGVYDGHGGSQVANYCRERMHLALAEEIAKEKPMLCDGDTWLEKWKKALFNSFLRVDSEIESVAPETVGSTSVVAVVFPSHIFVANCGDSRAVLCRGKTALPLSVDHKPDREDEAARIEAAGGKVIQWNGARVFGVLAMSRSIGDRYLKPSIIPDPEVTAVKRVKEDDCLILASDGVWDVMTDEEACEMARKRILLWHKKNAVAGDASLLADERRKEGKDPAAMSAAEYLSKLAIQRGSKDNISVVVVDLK
`A35F`: “relative binding score” -7.36%.
For `D159W`, “relative binding score” read -1.56%.
For `W41T`, “relative binding score” read -0.122%.
`I133R` — result for “relative binding score”: 85.8%.
Under “relative binding score”, `F124N` is recorded as 58.8%.
Under “relative binding score”, `F56T` is recorded as -0.603%.
`W134M`: “relative binding score” 96.4%.
For `E109T`, “relative binding score” read 88.5%.
`G148S` — result for “relative binding score”: 67.9%.
For `K58C`, “relative binding score” read 60.5%.
`R163Q` — result for “relative binding score”: 75.2%.
`R123D`: “relative binding score” 88.8%.
`T17H`: “relative binding score” 80.1%.

Sample 4
Target: Ras GTPase-activating protein-binding protein 1, full length (G3BP1, Homo sapiens, UniProt Q13283)
Chain of UniProt Q13283 (whole entry, looked up): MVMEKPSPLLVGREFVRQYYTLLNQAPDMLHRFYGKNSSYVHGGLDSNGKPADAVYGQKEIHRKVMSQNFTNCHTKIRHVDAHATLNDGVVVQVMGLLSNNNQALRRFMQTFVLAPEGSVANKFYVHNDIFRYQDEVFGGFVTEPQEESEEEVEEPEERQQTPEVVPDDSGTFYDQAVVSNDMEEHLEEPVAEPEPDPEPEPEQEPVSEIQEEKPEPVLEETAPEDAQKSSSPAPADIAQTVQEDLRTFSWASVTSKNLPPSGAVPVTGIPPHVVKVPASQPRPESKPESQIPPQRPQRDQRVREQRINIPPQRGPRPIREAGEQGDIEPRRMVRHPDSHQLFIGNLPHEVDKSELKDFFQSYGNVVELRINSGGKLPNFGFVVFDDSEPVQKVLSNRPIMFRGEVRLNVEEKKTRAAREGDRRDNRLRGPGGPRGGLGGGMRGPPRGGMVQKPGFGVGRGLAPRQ
Method: RNA Bind-n-Seq
Molecule type: RNA
Matrix: in vitro
Concentration: 200 nM
Notes: whole 134-nt RNA, ends assumed
Together with: 150 mM KCl
Reference: input library
Reading: higher = stronger binding
Shared flanks, not repeated: GGGAGUUCUACAGUCCGACGAUC … UGGAAUUCUCGGGUGUCAAGG
`AGUCCUGUGCUACACAUCGUAUGUACCGAAUCGGGGUUUGGGGAAAAAGGGGAGGGGAAAGUAUUAUGUUACGCCGUUCGGAUCUGCACU` has a log2 enrichment of 0.633.
With `CUGUGCUACACAUCGUAUGUACCGAAUCGGGUUUUUUUGGGGUUUUUUUGGGGUUUUUUUGGAAAGUAUUAUGUUACGCCGUUCGGAUCU` the log2 enrichment was -0.728.
With `UUCUGGUCUGCUCACCAGAGGUUCUUCAAAUACUUAUGCAUAGCAUCCAAAGUUAAAAGGGUUGUGCAACUAGCUCGAGAGGAAAUCAAG` the log2 enrichment was -1.7.
`UAACUUUAGAGGAGGAUCUGAUGGAUAUGGCAGUGGACGUGGAUUUGGGGGUGGCUAUAAUGGGUAUGGAGGAGGACCUGGAGGUGGCAA` gave a log2 enrichment of 0.232.
With `CACAGACAACACGCACCCAAAAAGACACAGAGGGAAGGGGUUGGGAUGGGGACAGGGUGCACAGCAGGGCGGGGUAGGACCCCAGCCCCU` the log2 enrichment was 1.92.
The log2 enrichment of `UAACUUUAGAGGAGGAUCUGAUGGAUAUGGCAGUGGACGUGGAUUUCGGGAUGGCUAUAAUGGGUAUGGAGGAGGACCUGGAGGUGGCAA` is reported as 0.172.
With `CUCAAGUCCUGUGCUACACAUCGUAUGUACCGAAUCGGAAAAAAAGGAGGAGGAAAGUAUUAUGUUACGCCGUUCGGAUCUGCACUUCCA` the log2 enrichment was -0.556.
`UCCUGUGCUACACAUCGUAUGUACCGAAUCGGGGUUUUUUGGUUUUUUGGGUUUUUUGGAAAGUAUUAUGUUACGCCGUUCGGAUCUGCA` gave a log2 enrichment of -0.475.
The log2 enrichment of `CAAGUCCUGUGCUACACAUCGUAUGUACCGAAUCGGUUUUUUUGGAAAGGUUUGGAAAGUAUUAUGUUACGCCGUUCGGAUCUGCACUUC` is reported as -1.21.
`UCAAGUCCUGUGCUACACAUCGUAUGUACCGAAUCGGGGAAGGGGAAGGGAAGGGAAAGUAUUAUGUUACGCCGUUCGGAUCUGCACUUC` gave a log2 enrichment of 0.939.
For `CCUGUGCUACACAUCGUAUGUACCGAAUCGGGGCCCCCCGGGCCCCCCGGCCCCCCGGGGAAAGUAUUAUGUUACGCCGUUCGGAUCUGC`, the log2 enrichment was -0.698.
For `AAGUCCUGUGCUACACAUCGUAUGUACCGAAUCGGGAGGGUUUUUGGGUUUUUGGGAAAGUAUUAUGUUACGCCGUUCGGAUCUGCACUU`, the log2 enrichment was -0.189.
For `CACAGACAACACGCACCCACACAGACACAGAGGGAAGGGGUUUGGAUGGGGACAGGGUGCACAGCAGGGCGGGGUAGGACCCCAGCCCCU`, the log2 enrichment was 1.73.
`UCAAGUCCUGUGCUACACAUCGUAUGUACCGAAUCGGGAAAAAGGGUGGGUGGGAAAGUAUUAUGUUACGCCGUUCGGAUCUGCACUUCC` gave a log2 enrichment of 0.862.

Sample 5
Target: Prothrombin, mature alpha-thrombin (F2, Homo sapiens, UniProt P00734)
Method: aptamer microarray, sandwich
Molecule type: DNA with 2'F-ANA
Matrix: in vitro
Concentration: 200 nM
Notes: whole 15-mer aptamer, many near background
Together with: Cy3 exosite-II aptamer, 400 nM
Reading: higher = stronger binding
Oligonucleotide: GGTTGGTGTGGTTGG
For `2'F-ANA at 3 5 6 9 11 12 13 14`, “mean fluorescence intensity” read 55.7 a.u.
For `2'F-ANA at 2 3 4 5 7 8 10 12 14 15`, “mean fluorescence intensity” read 51.3 a.u.
`2'F-ANA at 2 4 8 9 11 12 13`: “mean fluorescence intensity” 344 a.u.
Under “mean fluorescence intensity”, `2'F-ANA at 4 5 6 7 8 15` is recorded as 72.6 a.u.
`2'F-ANA at 1 4 5 7 8 10 12`: “mean fluorescence intensity” 45.6 a.u.
`2'F-ANA at 1 3 6 8 12` — result for “mean fluorescence intensity”: 589 a.u.
Under “mean fluorescence intensity”, `2'F-ANA at 2 4 5 6 9 11 14 15` is recorded as 47.5 a.u.
For `2'F-ANA at 2 3 4 5 8 9 11 12 13 14 15`, “mean fluorescence intensity” read 57.2 a.u.
`2'F-ANA at 1 3 4 5 6` — result for “mean fluorescence intensity”: 72.7 a.u.
`2'F-ANA at 4 6 9 10 11 13 14` — result for “mean fluorescence intensity”: 54.2 a.u.
`2'F-ANA at 3 4 5 6 13 15`: “mean fluorescence intensity” 103 a.u.
Under “mean fluorescence intensity”, `2'F-ANA at 1 5 6 7 10 12 14` is recorded as 48.8 a.u.

For quick reference, copied from above (sample 3):
`T17H`: “relative binding score” 80.1%.
Under “relative binding score”, `F124N` is recorded as 58.8%.
For `D159W`, “relative binding score” read -1.56%.
For `W41T`, “relative binding score” read -0.122%.
For `K58C`, “relative binding score” read 60.5%.
For `E109T`, “relative binding score” read 88.5%.
`W134M`: “relative binding score” 96.4%.
`R123D`: “relative binding score” 88.8%.
`G148S` — result for “relative binding score”: 67.9%.
`A35F`: “relative binding score” -7.36%.
